Measured values of several laboratories.
“And” joins repeats or separate records; there may be more than shown. Numbers after ± are the reported error.
GBA1 R534H: Lysosomal acid glucosylceramidase (GBA1, Homo sapiens, UniProt P04062, R534H)
Gria1/Gria2: Glutamate receptor AMPA 1/2 (Gria1/Gria2, Rattus norvegicus, UniProt P19490+P19491)
PSMB8: Proteasome subunit beta type-8 (PSMB8, Homo sapiens, UniProt P28062)
P4HB: Protein disulfide-isomerase (P4HB, Homo sapiens, UniProt P07237)
HDAC6: Protein deacetylase HDAC6 (HDAC6, Homo sapiens, UniProt Q9UBN7)
JAK3: Tyrosine-protein kinase JAK3 (JAK3, Homo sapiens, UniProt P52333)

The IC50 of `CC(=O)N[C@@H](Cc1ccc([N+](=O)[O-])cc1)C(=O)N[C@@H]1CSSC[C@@H](C(=O)N[C@H](Cc2ccc(O)cc2)C(N)=O)NC(=O)[C@H]([C@@H](C)O)NC(=O)[C@H](CCCCN)NC(=O)[C@@H](Cc2c[nH]c3ccccc23)NC(=O)[C@H](Cc2ccc(O)cc2)NC1=O` is reported as over 1 µM (SSTR1 (Homo sapiens, UniProt P30872); ligand displacement, radioligand).
`CCCCCN1C[C@H](O)[C@@H](O)[C@H](O)[C@@H]1CO` has an IC50 of 1000 µM (GBA1 R534H; inhibitor, 4MU-β-D-glucopyranoside; added: 4MU-β-D-glucopyranoside).
`O=c1c(Oc2ccccc2)c(C(F)(F)F)oc2c(O)c(O)ccc12` has an IC50 of 6.35 ± 0.35 µM (Cullin-1, with ROC1; neddylated (Homo sapiens, UniProt Q13616); FRET; 25 min, added: neddylated Cul1).
`O=C(CCN(Cc1cccnc1)Cc1ccc(Cl)c(O)c1F)NO` has an IC50 of 1.1 µM (MEP1A (Homo sapiens, UniProt Q16819); enzyme activity, inhibitor).
The IC50 of `O=C(O)c1ccc2[nH]c(-c3ccc(OCC(O)COc4ccc(-c5nc6cc(C(=O)O)ccc6[nH]5)cc4)cc3)nc2c1` is reported as 69 ± 22 µM (Beta-lactamase (Escherichia coli, UniProt Q8VNN1); enzyme activity, inhibitor).
`Cc1cc(N)n(-c2ccc(Oc3ccccc3)c(S(=O)(=O)O)c2)n1` gave an IC50 of 10 to 90 µM (Protein FosB, ΔFosB isoform, with JunD (Fosb, Mus musculus, UniProt P13346); ΔFosB/JunD binding to AP-1 DNA, inhibitor, fluorescence polarization; protein, full length 280 nM, no TCEP, added: 25 nM TMR-cdk5 oligonucleotide).
`CCCCCCCCOCCCCCN1C[C@H](O)[C@@H](O)[C@H](O)[C@H]1CO` has an IC50 of 0.5 µM (GBA1 R534H; inhibitor, 4MU-β-D-glucopyranoside; added: 4MU-β-D-glucopyranoside).
`COC(=O)Cc1cc2c(cc1C(=O)c1ccccc1Br)OCO2` gave an IC50 of 5.48 µM (Gria1/Gria2; ion current, patch clamp).
The IC50 of `CC(C)C[C@H](NC(=O)[C@H](Cc1ccc(CN)cc1)NC(=O)[C@H](Cc1ccccc1)N=[N+]=[N-])C(=O)N[C@@H](CC1CC2CCC1C2)C(=O)[C@@]1(C)CO1` (stereo in doubt) is reported as over 10 µM (PSMB8; enzyme activity, inhibitor; lysate).
`COc1ccc(/C=C/C(=O)c2ccc(C#N)cc2)cc1` has an IC50 of over 100 µM (P4HB; enzyme activity, inhibitor).
With `CC(C)(C)n1ncc2c(=O)n(Cc3cccc(F)c3)c(NCc3ccc(F)cn3)nc21` the IC50 was over 10 µM (PDE8A (Homo sapiens, UniProt O60658); enzyme activity, inhibitor).
The IC50 of `OC[C@@H]1[C@@H](O)[C@H](O)[C@@H](O)CN1CCCCCOCC1CC1` is reported as 51 µM (GBA1 R534H; inhibitor, 4MU-β-D-glucopyranoside; added: 4MU-β-D-glucopyranoside).
With `CN(C)c1ccc(/C=C/C(=O)c2ccc(S(=O)(=O)N3CCCCCC3)cc2)cc1[N+](=O)[O-]` the IC50 was over 100 µM (P4HB; enzyme activity, inhibitor).
`CC[C@H](C)C(=O)O[C@H]1C[C@@H](C)C=C2C=C[C@H](C)[C@H](CC[C@@H]3CC=CC(=O)O3)[C@H]21` has an IC50 of 1.46 µM (CFTR (Homo sapiens, UniProt P13569); apical chloride current, inhibitor; T84, basolaterally permeabilized; added: CPT-cAMP 100 µM).
`Cc1ccc(C)c(/C=C/C(=O)c2ccc(O)cc2)c1` has an IC50 of 1.97 µM (P4HB; enzyme activity, inhibitor).
For `O=C(NO)c1cc(F)cc(OS(=O)(=O)Oc2ccc(Br)cc2)c1`, the IC50 was 0.225 µM (HDAC6; enzyme activity, inhibitor, fluorescence).
For `Cc1cc(C)nc(NC(=S)N2CCN(Cc3ccc(C(F)(F)F)cc3)CC2)c1`, the IC50 was over 100 µM (Glycerol-3-phosphate dehydrogenase 1-like protein (GPD1L, Homo sapiens, UniProt Q8N335); enzyme activity; counterscreen).
`O=S(=O)(Nc1ccc(CO)cc1)c1ccc(Cl)c(Cl)c1` has an IC50 of over 80 µM (17-beta-hydroxysteroid dehydrogenase 13 (Homo sapiens, UniProt Q7Z5P4); enzyme activity, inhibitor; added: β-estradiol).
`CN1CCCC1C(=O)NC(Cc1ccc(-n2cccn2)cc1)B(O)O` (stereo not shown) gave an IC50 of over 10 µM (20S proteasome, beta1 subunit (Plasmodium falciparum, UniProt Q8I0U7+Q8I6T3); β1 activity, inhibitor; added: Ac-nLPnLD-AMC).
The IC50 of `NC(=O)c1ccc(C(=O)NOCc2ccc(Sc3cccc(Cl)c3)c(C(F)(F)F)c2)cc1` is reported as over 30 µM (Cytochrome P450 2E1 (CYP2E1, Homo sapiens, UniProt P05181); pooled human liver microsomes; 10 min).
`CCC(CC)C(=O)/C=C/C(=O)N1CCc2cc(Nc3ncc(C)c(-c4cnn(C(C)C)c4)n3)ccc2C1` gave an IC50 of over 0.03 µM (JAK3; enzyme activity, inhibitor, ADP detection).
The IC50 of `C/C(=N\Nc1nc(-c2ccc(Cl)cc2)cs1)c1ccc2c(c1)sc1nc(=O)c(C#N)cn12` is reported as 1.54 µM (DNA gyrase (gyrA/gyrB, Escherichia coli, UniProt P0AES4+P0AES6); enzyme activity, inhibitor).
With `Cc1cccc(-c2ccc(COCCCCCN3C[C@H](O)[C@@H](O)[C@H](O)[C@H]3CO)cc2)c1` the IC50 was 0.25 µM (GBA1 R534H; inhibitor, 4MU-β-D-glucopyranoside; added: 4MU-β-D-glucopyranoside).
With `Cc1cc(C)c(S(=O)(=O)N(CC(=O)O)c2ccc(Nc3ccnc(N4CCCC4)n3)cc2)c(C)c1` the IC50 was over 100 µM (AKT2 (Homo sapiens, UniProt P31751); enzyme activity, inhibitor).
`COC(=O)Cc1cc2c(cc1C(=O)c1ccccc1I)OCO2` gave an IC50 of 6.03 µM (Gria1/Gria2; ion current, antagonist, patch clamp).
For `C#Cc1cnc(Nc2ccnc(CO)c2)nc1Nc1ccccc1-c1nccs1`, the IC50 was 0.112 µM (IRAK4 (Homo sapiens, UniProt Q9NWZ3); enzyme activity, inhibitor, radiometric).
For `O=C(/C=C/c1ccccc1)c1ccc2c(c1)OCCCO2`, the IC50 was 24 µM (P4HB; enzyme activity, inhibitor).
The IC50 of `CCCCCCCOCCCCCN1C[C@H](O)[C@@H](O)[C@H](O)[C@H]1CO` is reported as 1.75 µM (GBA1 R534H; inhibitor, 4MU-β-D-glucopyranoside; added: 4MU-β-D-glucopyranoside).
`CCN(CC)CC(=O)Nc1cccc(-n2cc(-c3ccc4ccc(-c5cn(-c6cccc(NC(=O)CN(CC)CC)c6)nn5)cc4c3)nn2)c1` has an IC50 of over 10 µM (FGFR3 (Homo sapiens, UniProt P22607, K650E); kinase activity, inhibitor; construct 411-806 K650E).
`CN1CCN(c2ccc3[nH]c(-c4c(NC5CCNCC5)c5cc(Cl)ccc5[nH]c4=O)nc3c2)CC1` has an IC50 of ≤ 20 µM and 14.3 µM (WDR5 (Homo sapiens, UniProt P61964)).
For `O=C(CNc1cccc2c1C(=O)N(C1CCC(=O)NC1=O)C2=O)NCCOCCOCCOCC(=O)N1CCC(CNC(=O)c2cccc(-c3noc(C(F)(F)F)n3)c2)(c2nc(-c3ccccc3)cs2)CC1` (stereo not shown), the IC50 was 0.18 µM (HDAC9 (Homo sapiens, UniProt Q9UKV0); enzyme activity, inhibitor).
The IC50 of `COc1cccc(/C=C/C(=O)c2ccc(Cl)c(Cl)c2)c1OC` is reported as 78 µM (P4HB; enzyme activity, inhibitor).
`O=C(CCc1ccc(CNC(C(=O)OC2CCCC2)C2CCCCC2)cn1)NO` (stereo not shown) has an IC50 of 0.052 µM (HDAC6; enzyme activity, inhibitor).
For `Cc1ccc(-c2ccc(COCCCCCN3C[C@H](O)[C@@H](O)[C@H](O)[C@H]3CO)cc2)cc1`, the IC50 was 0.25 µM (GBA1 R534H; inhibitor, 4MU-β-D-glucopyranoside; added: 4MU-β-D-glucopyranoside).
The IC50 of `Cc1ccc(N=C2CC(=O)c3sc(C)nc3C2=O)cc1` is reported as 2 µM (SMYD2 (Homo sapiens, UniProt Q9NRG4, G165E); enzyme activity, inhibitor).
For `CCOc1cc(CN2CC3(CC(N4CCC(C(=O)O)CC4)=NO3)C2)cc(OCC)c1-c1ccc(F)cc1`, the IC50 was 0.2 µM (SSTR5 (Homo sapiens, UniProt P35346); cAMP level, agonist, GloSensor; AD293; added: CST17 EC80 and forskolin).
`Cc1nn(-c2cccc(N)c2)c(=O)c2cnc(Nc3ccc(N4CCNCC4)cc3)nc12` has an IC50 of 2.12 µM (JAK3; enzyme activity, inhibitor).
`CC(C)C[C@H](NC(=O)[C@H](Cc1ccc(CN)cc1)NC(=O)[C@H](Cc1ccccc1)N=[N+]=[N-])C(=O)N[C@@H](CC1CCCC2CCCCC21)C(=O)[C@@]1(C)CO1` (stereo partly shown) gave an IC50 of over 10 µM (PSMB8; enzyme activity, inhibitor; lysate).
`OC[C@@H]1[C@@H](O)[C@H](O)[C@@H](O)CN1CCCCCOCc1ccc(-c2ccccc2)cc1F` has an IC50 of 0.25 µM (GBA1 R534H; inhibitor, 4MU-β-D-glucopyranoside; added: 4MU-β-D-glucopyranoside).
The IC50 of `CC(C)(C)NC(=O)C1CCN(Cc2cccc(N=Nc3ccc(F)cc3)c2)CC1` is reported as 0.398 µM (ACKR3 (Homo sapiens, UniProt P25106); ligand displacement, BRET).
The IC50 of `COC(=O)Cc1cc2c(cc1C(=O)c1ccc(Cl)cc1Cl)OCO2` is reported as 4.89 µM (Gria1/Gria2; ion current, patch clamp).
With `Cc1cc(NC2CCN(C)CC2)ccc1-c1cc2c(N3CCC[C@H](C(=O)NCc4ccc(OC(F)(F)F)cc4)C3)ncnc2[nH]1` the IC50 was 5.95 µM (FGFR1 (Homo sapiens, UniProt P11362); enzyme activity, inhibitor, mobility shift).
With `O=C(O)Cc1cc2c(cc1C(=O)c1ccccc1I)OCO2` the IC50 was 4.68 µM (Gria1/Gria2; ion current, antagonist, patch clamp).
`OC[C@@H]1[C@@H](O)[C@H](O)[C@@H](O)c2nccn21` has an IC50 of 0.05 µM (GBA1 R534H; 30 min preincubation, pH 5.2, added: 200 µM 2,4-dinitrophenyl-β-D-glucopyranoside).
The IC50 of `O=C(/C=C/c1ccc2c(c1)OCCO2)c1cc(Br)ccc1O` is reported as over 100 µM (P4HB; enzyme activity, inhibitor).
`O=C(CN1CN(c2ccccc2)C2(CCN(C(=O)c3ccc4[nH]ncc4n3)CC2)C1=O)NCC(F)(F)F` has an IC50 of 0.018 µM (DDR1 (Homo sapiens, UniProt Q08345); ligand displacement).
The IC50 of `CC(C)(C)COCCOCCN1C[C@H](O)[C@@H](O)[C@H](O)[C@@H]1CO` is reported as 100 µM (GBA1 R534H; inhibitor, 4MU-β-D-glucopyranoside; added: 4MU-β-D-glucopyranoside).
`O=C(O)Cc1cc2c(cc1C(=O)c1cccc(I)c1)OCO2` gave an IC50 of 4.66 µM (Gria1/Gria2; ion current, patch clamp).
For `CC(C)(C)c1ccccc1OS(=O)(=O)Oc1cccc(C(=O)NO)c1`, the IC50 was 0.919 µM (HDAC6; enzyme activity, inhibitor, fluorescence).

A few entries again:
The IC50 of `CCCCCCCOCCCCCN1C[C@H](O)[C@@H](O)[C@H](O)[C@H]1CO` is reported as 1.75 µM (GBA1 R534H; inhibitor, 4MU-β-D-glucopyranoside; added: 4MU-β-D-glucopyranoside).
`CCN(CC)CC(=O)Nc1cccc(-n2cc(-c3ccc4ccc(-c5cn(-c6cccc(NC(=O)CN(CC)CC)c6)nn5)cc4c3)nn2)c1` has an IC50 of over 10 µM (FGFR3 (Homo sapiens, UniProt P22607, K650E); kinase activity, inhibitor; construct 411-806 K650E).
`CN1CCN(c2ccc3[nH]c(-c4c(NC5CCNCC5)c5cc(Cl)ccc5[nH]c4=O)nc3c2)CC1` has an IC50 of ≤ 20 µM and 14.3 µM (WDR5 (Homo sapiens, UniProt P61964)).
